Measured values collected from several papers.
A part holds a random share of what one study measured. Values joined by “and” are separate records of one study, mostly repeats; a detail may differ.
Chain of UniProt P31749 (whole entry, looked up): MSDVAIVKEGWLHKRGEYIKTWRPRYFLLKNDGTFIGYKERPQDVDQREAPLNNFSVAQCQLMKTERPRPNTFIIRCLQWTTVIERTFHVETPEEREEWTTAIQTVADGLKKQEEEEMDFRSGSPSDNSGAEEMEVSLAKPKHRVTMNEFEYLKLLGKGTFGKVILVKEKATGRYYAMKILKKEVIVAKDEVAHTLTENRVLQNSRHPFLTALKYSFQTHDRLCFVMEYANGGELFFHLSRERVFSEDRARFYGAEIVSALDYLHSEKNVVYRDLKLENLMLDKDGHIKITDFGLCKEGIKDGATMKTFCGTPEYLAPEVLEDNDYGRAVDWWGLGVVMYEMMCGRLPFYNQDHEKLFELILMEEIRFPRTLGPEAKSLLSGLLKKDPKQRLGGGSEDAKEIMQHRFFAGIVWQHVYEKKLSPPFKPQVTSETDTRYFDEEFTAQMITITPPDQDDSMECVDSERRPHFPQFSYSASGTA
Chain of UniProt Q8WU08 (whole entry, looked up): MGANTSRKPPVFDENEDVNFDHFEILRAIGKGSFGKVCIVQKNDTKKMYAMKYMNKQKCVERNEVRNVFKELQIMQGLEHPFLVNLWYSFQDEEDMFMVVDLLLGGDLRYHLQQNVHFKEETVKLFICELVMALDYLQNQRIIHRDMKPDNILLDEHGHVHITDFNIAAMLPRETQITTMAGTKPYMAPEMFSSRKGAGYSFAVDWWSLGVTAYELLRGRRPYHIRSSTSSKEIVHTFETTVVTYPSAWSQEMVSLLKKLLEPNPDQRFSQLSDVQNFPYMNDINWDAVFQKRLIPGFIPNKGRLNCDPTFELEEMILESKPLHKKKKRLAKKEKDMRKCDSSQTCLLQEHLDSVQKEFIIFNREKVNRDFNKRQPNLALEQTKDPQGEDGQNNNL
Chain of UniProt Q15418 (whole entry, looked up): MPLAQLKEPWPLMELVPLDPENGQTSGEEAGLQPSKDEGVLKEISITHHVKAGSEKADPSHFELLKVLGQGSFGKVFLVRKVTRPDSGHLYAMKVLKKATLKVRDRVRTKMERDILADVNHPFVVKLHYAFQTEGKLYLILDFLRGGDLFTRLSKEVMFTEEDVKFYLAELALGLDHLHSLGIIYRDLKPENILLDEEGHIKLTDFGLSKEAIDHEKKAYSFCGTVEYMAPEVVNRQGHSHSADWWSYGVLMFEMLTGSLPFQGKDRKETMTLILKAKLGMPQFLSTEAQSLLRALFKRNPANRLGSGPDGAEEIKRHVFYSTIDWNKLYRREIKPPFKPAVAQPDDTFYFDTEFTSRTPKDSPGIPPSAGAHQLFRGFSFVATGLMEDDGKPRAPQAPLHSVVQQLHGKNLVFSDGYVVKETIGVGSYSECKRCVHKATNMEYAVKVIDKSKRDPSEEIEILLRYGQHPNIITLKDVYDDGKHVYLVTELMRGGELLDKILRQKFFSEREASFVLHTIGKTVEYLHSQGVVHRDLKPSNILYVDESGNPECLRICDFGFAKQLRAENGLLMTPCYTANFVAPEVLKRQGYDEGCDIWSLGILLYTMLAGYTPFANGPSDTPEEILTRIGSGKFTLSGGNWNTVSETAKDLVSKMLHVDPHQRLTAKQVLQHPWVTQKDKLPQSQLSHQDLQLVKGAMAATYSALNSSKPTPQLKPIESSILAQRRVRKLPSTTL
Chain of UniProt P11802 (whole entry, looked up): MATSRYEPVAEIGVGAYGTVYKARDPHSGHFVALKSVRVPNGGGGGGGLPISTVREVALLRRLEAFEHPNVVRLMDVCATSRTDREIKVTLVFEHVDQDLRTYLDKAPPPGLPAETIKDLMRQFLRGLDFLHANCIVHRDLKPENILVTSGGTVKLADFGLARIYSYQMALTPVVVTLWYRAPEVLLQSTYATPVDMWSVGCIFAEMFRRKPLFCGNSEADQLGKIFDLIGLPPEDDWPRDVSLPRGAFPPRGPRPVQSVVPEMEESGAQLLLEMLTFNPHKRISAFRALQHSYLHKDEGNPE

Study 1 — organism: Sarcocystis neurona; effect on: parasite growth; concentration: 10 µM; time: 96 h; setting: second screen; baseline: untreated
Compound | log2 fold change
C[C@](N)(Cc1ccc(O)c(O)c1)C(=O)O | 0.22
NS(=O)(=O)c1cc2c(cc1Cl)NCNS2(=O)=O | 0.04
CCS(=O)(=O)CCn1c([N+](=O)[O-])cnc1C | 0.27
C[C@H](CCC(=O)O)[C@H]1CC[C@H]2[C@@H]3C(=O)C[C@@H]4CC(=O)CC[C@]4(C)[C@H]3CC(=O)[C@]12C | 0.42
CCN(CC)CC1CCCCN1CC(=O)N1c2ccccc2C(=O)Nc2cccnc21 (centres unmarked) | 0.28

Study 2 — effect on: enzyme activity; action: inhibitor; concentration: 77 µM; baseline: untreated
Target: DNA polymerase theta, ATPase domain (POLQ, Homo sapiens, UniProt O75417)
Chain of UniProt O75417 (whole entry, unmodified, looked up): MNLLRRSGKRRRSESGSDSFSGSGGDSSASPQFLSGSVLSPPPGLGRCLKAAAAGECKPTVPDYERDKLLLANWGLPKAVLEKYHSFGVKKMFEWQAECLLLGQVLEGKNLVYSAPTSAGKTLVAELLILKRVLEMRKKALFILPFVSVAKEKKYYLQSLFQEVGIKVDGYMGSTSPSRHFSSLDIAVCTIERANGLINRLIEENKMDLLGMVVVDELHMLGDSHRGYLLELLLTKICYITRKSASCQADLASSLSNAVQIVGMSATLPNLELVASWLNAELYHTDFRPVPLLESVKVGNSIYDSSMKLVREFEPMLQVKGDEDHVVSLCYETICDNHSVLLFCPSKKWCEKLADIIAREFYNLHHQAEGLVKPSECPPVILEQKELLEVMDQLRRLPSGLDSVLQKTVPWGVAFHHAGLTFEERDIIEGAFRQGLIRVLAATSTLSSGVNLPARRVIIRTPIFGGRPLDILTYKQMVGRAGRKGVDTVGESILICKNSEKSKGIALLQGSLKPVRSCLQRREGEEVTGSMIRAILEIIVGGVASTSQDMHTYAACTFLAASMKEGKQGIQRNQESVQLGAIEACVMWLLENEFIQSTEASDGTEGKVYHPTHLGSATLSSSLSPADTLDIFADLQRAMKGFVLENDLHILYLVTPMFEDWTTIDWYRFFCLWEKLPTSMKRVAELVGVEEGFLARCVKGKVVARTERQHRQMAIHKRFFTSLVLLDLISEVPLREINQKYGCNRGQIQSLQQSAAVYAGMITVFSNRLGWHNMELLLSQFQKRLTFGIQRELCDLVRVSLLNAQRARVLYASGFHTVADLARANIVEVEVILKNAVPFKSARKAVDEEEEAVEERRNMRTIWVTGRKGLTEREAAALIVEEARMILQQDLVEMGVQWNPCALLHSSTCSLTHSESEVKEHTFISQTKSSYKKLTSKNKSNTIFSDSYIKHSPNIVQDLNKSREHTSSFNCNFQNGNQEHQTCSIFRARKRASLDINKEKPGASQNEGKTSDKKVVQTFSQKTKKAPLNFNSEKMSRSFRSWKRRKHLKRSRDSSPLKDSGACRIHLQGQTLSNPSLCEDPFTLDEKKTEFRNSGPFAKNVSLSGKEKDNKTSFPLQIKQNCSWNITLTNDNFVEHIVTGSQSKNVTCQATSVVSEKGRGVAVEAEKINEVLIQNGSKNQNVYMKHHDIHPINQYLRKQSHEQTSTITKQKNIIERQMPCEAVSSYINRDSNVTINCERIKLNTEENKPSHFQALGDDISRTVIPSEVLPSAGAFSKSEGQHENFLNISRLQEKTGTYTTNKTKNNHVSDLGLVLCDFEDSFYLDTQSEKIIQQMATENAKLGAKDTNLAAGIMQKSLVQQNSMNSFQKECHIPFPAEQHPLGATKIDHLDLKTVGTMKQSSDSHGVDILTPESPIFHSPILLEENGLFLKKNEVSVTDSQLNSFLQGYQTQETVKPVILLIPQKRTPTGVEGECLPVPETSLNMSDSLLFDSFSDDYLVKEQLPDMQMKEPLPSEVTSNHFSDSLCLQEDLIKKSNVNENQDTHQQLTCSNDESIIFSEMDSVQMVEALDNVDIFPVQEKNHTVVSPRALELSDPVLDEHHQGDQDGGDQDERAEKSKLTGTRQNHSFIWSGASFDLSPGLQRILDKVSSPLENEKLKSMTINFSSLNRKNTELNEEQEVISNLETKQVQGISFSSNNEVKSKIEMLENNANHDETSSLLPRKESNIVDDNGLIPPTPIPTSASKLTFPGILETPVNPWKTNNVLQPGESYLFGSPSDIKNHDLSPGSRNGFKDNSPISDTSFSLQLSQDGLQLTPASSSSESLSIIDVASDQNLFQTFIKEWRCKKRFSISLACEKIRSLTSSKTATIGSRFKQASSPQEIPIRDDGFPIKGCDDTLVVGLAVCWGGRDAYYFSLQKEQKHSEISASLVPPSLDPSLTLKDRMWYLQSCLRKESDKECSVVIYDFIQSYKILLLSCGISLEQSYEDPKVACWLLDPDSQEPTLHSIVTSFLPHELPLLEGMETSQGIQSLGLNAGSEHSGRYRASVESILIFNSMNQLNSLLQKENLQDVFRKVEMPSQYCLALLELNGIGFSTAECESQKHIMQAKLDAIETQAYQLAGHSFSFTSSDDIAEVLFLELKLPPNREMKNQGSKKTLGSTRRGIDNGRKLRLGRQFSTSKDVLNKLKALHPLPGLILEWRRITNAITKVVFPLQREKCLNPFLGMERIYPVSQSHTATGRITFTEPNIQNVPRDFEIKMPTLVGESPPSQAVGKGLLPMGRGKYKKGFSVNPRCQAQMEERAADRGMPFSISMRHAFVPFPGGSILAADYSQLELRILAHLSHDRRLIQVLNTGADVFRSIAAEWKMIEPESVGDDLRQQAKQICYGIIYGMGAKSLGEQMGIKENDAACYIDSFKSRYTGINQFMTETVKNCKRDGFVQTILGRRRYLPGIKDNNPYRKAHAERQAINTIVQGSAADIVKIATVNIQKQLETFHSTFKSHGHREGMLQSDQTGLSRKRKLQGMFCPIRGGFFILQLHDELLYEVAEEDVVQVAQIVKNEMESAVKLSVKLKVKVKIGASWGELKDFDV
Structure (SMILES) | remaining activity
CC(=O)Oc1cc(C(F)(F)F)ccc1C(=O)O | 92.8% and 81.3%
CNC(=O)c1c(I)c(C(=O)NCC(=O)Nc2c(I)c(C(=O)O)c(I)c(C(=O)NCCO)c2I)c(I)c(N(C)C(C)=O)c1I | 103%
CCn1c(N)c(C(=O)NC)c(=O)c2ccc(C#C[C@@](C)(O)COC)nc21 | 102%
O=C1Cc2c([nH]c3ccc(Br)cc23)-c2ncccc2N1 | 97.6% and 92%
NC(=O)N1CCC(CC(=O)N2CCC([C@H]3c4ncc(Br)cc4CCc4cc(Cl)cc(Br)c43)CC2)CC1 | 134%
CSc1cccc(Nc2ncc3cc(-c4c(Cl)cccc4Cl)c(=O)n(C)c3n2)c1 | 104%

Study 3 — effect on: cell-free assay; method: competition with immobilised ligand; concentration: 1 µM
SMILES: CO[C@@H](C)c1c(Nc2ccc([C@H](N(C)C(=O)C3CCS(=O)(=O)CC3)C(F)(F)F)cc2)cnc2cc(Cl)nn12
target | remaining binding
FES (Homo sapiens, UniProt P07332) | 100%
Cyclin-dependent kinase 4, with cyclin D3 (CDK4, Homo sapiens, UniProt P11802) | 100%
PIK3CA (Homo sapiens, UniProt P42336, E542K) | 71%
STK32A (Homo sapiens, UniProt Q8WU08) | 100%
AKT1 (Homo sapiens, UniProt P31749) | 100%
TEK (Homo sapiens, UniProt Q02763) | 84%
TYRO3 (Homo sapiens, UniProt Q06418) | 100%
Ribosomal protein S6 kinase alpha-1, N-terminal kinase domain (RPS6KA1, Homo sapiens, UniProt Q15418) | 71%

Study 4 — effect on: enzyme activity; action: inhibitor; concentration: 0.5 µM; baseline: control
Target: RAC-alpha serine/threonine-protein kinase (AKT1, Homo sapiens, UniProt P31749)
SMILES | remaining activity
OCC(O)CCON=C1C(c2c(O)[nH]c3ccccc23)=Nc2ccccc21 (centres unmarked) | 95.6%
COc1ccc(CNC(=O)Nc2ncc([N+](=O)[O-])s2)cc1 | 102%
Nc1ccc2ncnc(NCCc3ccc(Oc4ccccc4)cc3)c2c1 | 98.2%
COc1cc2ncnc(Nc3ccc(Oc4ccccc4)cc3)c2cc1OC | 107%
COc1cc2ncnc(Nc3ccc(F)c(Cl)c3)c2cc1OCCCN1CCOCC1 | 94.1%
Cc1ccc(Nc2nccc(N(C)c3ccc4c(C)n(C)nc4c3)n2)cc1S(N)(=O)=O | 91.2%
O=C1NC(=O)C(c2cn(CCCn3ccnc3)c3ccccc23)=C1Nc1ccccc1 | 101%
O=S(=O)(c1cccc2cnccc12)N1CCCNCC1 | 99.3%
CCOC(=O)c1c(C)[nH]c(/C=C2\C(=O)Nc3ccccc32)c1C | 96.1%
O=C(O)c1ccc2c3c1cccc3c(=O)n1c3ccccc3nc21 | 101%
N#CC(C#N)=C(N)/C(C#N)=C/c1ccc(O)cc1 | 99.2%
CO[C@H]1C[C@@H]2CC[C@@H](C)[C@@](O)(O2)C(=O)C(=O)N2CCCC[C@H]2C(=O)O[C@H]([C@H](C)C[C@@H]2CC[C@@H](O)[C@H](OC)C2)CC(=O)[C@H](C)/C=C(\C)[C@@H](O)[C@@H](OC)C(=O)[C@H](C)C[C@H](C)/C=C/C=C/C=C/1C | 104%
Cc1ccc(NC(=O)c2ccc(CN3CCN(C)CC3)cc2)cc1Nc1nc(-c2cccnc2)cs1 | 93.2%
O=C(Nc1cccc(Nc2cc(Nc3cccc(C(F)(F)F)c3)ncn2)c1)C1CC1 | 102%
COc1cc2nccc(Oc3ccc(NC(=S)NC(=O)c4ccccc4C)cc3)c2cc1OC | 95.7%
COc1ccc(OC)c2c(=S)c3ccccc3[nH]c12 | 89.7%
